Measurements pooled from the literature.
Numbered parts are unrelated; each lists some results of a single study.

Series 1
Target: Sal-like protein 4, full length isoform A (SALL4, Homo sapiens, UniProt Q9UJQ4, residues 1-1053)
UniProt Q9UJQ4, sequence (whole entry, looked up): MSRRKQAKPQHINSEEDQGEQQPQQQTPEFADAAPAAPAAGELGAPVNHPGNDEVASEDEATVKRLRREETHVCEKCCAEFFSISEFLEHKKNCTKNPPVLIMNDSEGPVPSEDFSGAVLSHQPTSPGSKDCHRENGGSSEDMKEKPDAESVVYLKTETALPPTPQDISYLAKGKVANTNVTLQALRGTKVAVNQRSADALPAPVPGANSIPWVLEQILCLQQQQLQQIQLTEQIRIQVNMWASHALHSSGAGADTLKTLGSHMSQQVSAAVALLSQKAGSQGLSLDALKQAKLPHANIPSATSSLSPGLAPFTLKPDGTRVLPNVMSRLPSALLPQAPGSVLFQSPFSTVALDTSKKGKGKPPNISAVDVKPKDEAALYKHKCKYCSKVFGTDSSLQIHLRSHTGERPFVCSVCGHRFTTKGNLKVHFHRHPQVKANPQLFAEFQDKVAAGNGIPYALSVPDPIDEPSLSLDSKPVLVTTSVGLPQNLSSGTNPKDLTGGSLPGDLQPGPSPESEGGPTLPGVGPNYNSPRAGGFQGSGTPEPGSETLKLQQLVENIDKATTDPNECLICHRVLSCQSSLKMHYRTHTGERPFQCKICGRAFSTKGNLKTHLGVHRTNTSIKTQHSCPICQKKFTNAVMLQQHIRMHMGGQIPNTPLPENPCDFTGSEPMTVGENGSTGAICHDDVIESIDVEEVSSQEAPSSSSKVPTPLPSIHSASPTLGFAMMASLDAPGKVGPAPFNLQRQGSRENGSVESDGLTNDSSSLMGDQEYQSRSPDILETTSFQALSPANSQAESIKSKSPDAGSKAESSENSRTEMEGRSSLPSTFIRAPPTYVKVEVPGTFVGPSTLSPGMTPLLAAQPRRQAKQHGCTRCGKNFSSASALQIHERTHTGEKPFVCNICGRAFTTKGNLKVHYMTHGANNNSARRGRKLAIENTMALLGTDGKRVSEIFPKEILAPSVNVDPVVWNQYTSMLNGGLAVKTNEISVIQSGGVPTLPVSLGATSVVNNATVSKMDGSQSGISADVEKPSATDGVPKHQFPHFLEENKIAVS
Technique: universal PBM
Molecule type: double-stranded DNA, one strand shown
Medium: in vitro
Concentration: 600 nM
Notes: 8-mer, flanks averaged, mean of replicates
Reading: higher = stronger binding
| Oligonucleotide | E-score |
| --- | --- |
| GAACCAGC | -0.099 |
| GGTGGGGA | -0.187 |
| CGGGTTAG | -0.352 |
| GATACGCA | 0.0231 |
| CGAAAGTA | 0.0773 |
| ACCTAAGT | 0.076 |
| AGGAGCCT | -0.272 |
| ATTCAAAT | 0.334 |
| CGCTGGTC | -0.31 |
| GTCGTATA | 0.12 |
| ATTGAGCA | 0.0784 |
| ATAAAATC | 0.297 |
| ATCTCCGA | -0.0365 |
| CCAGAGGG | -0.343 |
| CGTATGAG | 0.0642 |
| ACGAGGCT | 0.00357 |
| CAAGTTTC | 0.122 |
| CTTTAAAC | 0.0826 |
| GCTATAAC | 0.147 |
| ATATCCGG | -0.0374 |
| CAGCAAGG | -0.183 |
| AAACTCCA | 0.0348 |
| AAACCCTT | 0.068 |
| ACTTTCTG | 0.0475 |
| CGTTCAAG | -0.0135 |

Series 2
Target: Interferon regulatory factor 7, full length, phosphomimetic (IRF7, Homo sapiens, UniProt Q92985, residues 1-503, S101K/S471D/S472D/S475D/S476D/S477D/S483D/S484D/S487D)
Technique: protein-binding microarray
Molecule type: double-stranded DNA, one strand shown
Medium: in vitro
Concentration: 250 nM
Notes: 60-bp whole probe
Added: salmon DNA 0.4 mg/ml
Reference: random background probes
Reading: higher = stronger binding
All sequences stand within: GCCTAGCAC … GTCTTGATTCGCTTGACGCTGCTG
Target sequence (chain): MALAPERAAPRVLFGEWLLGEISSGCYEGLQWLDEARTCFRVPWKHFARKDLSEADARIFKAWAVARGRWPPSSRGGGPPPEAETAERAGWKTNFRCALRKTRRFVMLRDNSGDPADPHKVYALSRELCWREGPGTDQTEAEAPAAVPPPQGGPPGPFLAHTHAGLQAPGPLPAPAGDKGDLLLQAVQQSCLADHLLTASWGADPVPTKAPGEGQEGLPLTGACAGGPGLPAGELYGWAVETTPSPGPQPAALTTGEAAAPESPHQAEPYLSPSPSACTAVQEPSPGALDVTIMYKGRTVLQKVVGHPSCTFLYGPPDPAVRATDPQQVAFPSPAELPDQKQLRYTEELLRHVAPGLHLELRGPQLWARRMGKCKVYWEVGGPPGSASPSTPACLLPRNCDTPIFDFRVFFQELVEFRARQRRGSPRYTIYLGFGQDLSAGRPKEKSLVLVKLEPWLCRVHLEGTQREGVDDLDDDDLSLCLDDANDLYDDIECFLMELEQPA
| Oligonucleotide | log fluorescence |
| --- | --- |
| TTAGGACTGGGACTGTGTTAGTGCTAG | -0.256 z-score |
| TCACATTACAGCTATTTTACTGTGCTA | 1.01 z-score |
| TTTCTTTTTGCACTCTCTACGTGCTAG | 4.31 z-score |
| GACGAACTGAGTATCGGGACGTGCTAG | -0.29 z-score |
| GACGGTTTCGGGTTTCGGGAGGTGCTA | 11.4 z-score |
| GACGGTTCAGGTTTCGGGACGTGCTAG | 2.63 z-score |
| GGGCATTTGGTTAGCGTATAGTGCTAG | -0.697 z-score |
| TTACGACTGCTACTGCTTTAGTGCTAG | -0.474 z-score |
| TCAAGAAAGTGAAATACCACTGTGCTA | -0.465 z-score |
| TTAGATTTCAGACTAGATTAGTGCTAG | 0.234 z-score |
| CTTGTTCTTAGCTTGGGTCTGTGCTAG | 0.791 z-score |
| GACTATTTCAGACTGGAGACGTGCTAG | 0.716 z-score |
| TTGGCTTTCCTTTATGTCCTGTGCTAG | 0.163 z-score |
| TTAGAACTGGGGTTTCCATTAGTGCTA | 1.03 z-score |
| GACGATTTCAGTTTCGATACGTGCTAG | 7.63 z-score |
| TTAGGTCTCGGTTTGGGTTAGTGCTAG | 6.9 z-score |
| TCAGTCATCCATCTGAAACTGTGCTAG | -0.217 z-score |
| GTCGAACTGAGTCTCGAGACGTGCTAG | 0.894 z-score |
| TTTGATTTCGGGACTGGATTAGTGCTA | 0.954 z-score |
| AGCAGAAAGTGAAATACCCTCGTGCTA | -0.555 z-score |
| GACGGACTGGGAGTGGGGACGTGCTAG | -0.57 z-score |
| GACGATATCAGACTGGATACGTGCTAG | -0.263 z-score |

Series 3
Target: RNA binding protein fox-1 homolog 2, RRM domain, GST-SBP tag (RBFOX2, Homo sapiens, UniProt O43251-10, residues 100-194)
Technique: RNA Bind-n-Seq
Molecule type: RNA
Medium: in vitro
Concentration: 365 nM
Notes: natural RNA segment, single round, ends assumed
Reference: no-protein control
Reading: higher = stronger binding
All sequences stand within: GGGAGUUCUACAGUCCGACGAUC … UGGAAUUCUCGGGUGCCAA
Target sequence (chain): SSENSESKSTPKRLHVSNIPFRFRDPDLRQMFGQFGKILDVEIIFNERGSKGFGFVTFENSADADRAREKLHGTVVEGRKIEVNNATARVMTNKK
| Oligonucleotide | RBNS enrichment (R) |
| --- | --- |
| GGGCUCAUUCCACGCAUUGCCUGCAGCCAUCUGCACACUGCACCUGCUGGCAGCUCCUCCCCAGCAAGGCUGGGCUAGAAGGCAGCUUUAGAAGUGAGCCCCUCUAAUGC | 0.628 |
| CCCAGCAUUUGGGAAACAGAGGCAAGAGGAUUGCUGCAAGUUUAAGGCCAGCCUGUCUACAUAGGGAGGUCCAGGCCAGGGAUGUAUAUCAAGAUCUUGUUUCAAAAAAU | 0.86 |
| UUCUCAUCCCCUGCUUGGCUUCUCUGCAUGUGGUCAUCUGCUGUGGCUUGGUGUUUAAUGGGUUAAAAAUAAGCCACUGCCUGACAUCCCAACAUUUGACACCCCAGCAA | 10.1 |
| CAGGCCAGGCUGAGGGUGGGGCCCUCUGGGACCUAGUCCUCUAAGCUGUCUUUGUUAGAUACUGCUGAGUGAAAGGUGGACCGAGAAGGCUCUUGUGAAGCUCCAGGUAG | 0.297 |
| AUGGUCACCAAAUUCUACUUCCAGGAGGACGAGUAUACUGCCCAGGCCUGCCUGUUCCCAUUCUUGCAUGGCAAGGACUGCAGGGACUGCCAGUCCCCCUGCCCCAGGGC | 1.24 |
| UGCAACACGGACCCCACCAGAGCUCUUGGAUACCCCCCUAGAUCCAUGUGGCUUUAUGUGAGGGGACUGAAUGCAGACACACCAUAGCCCCCUUCUACUACUUUCCCUCU | 0.425 |
| GUUCAGGCCCACUGAAGAAGUGUGCAGAAGUCUUGGAAGUCUGUCCCCGCCCUGAAGAGCUUCAGAAAUAGUGGGAGUUUCCCUAAAGCCUUUCAUAGCCUUAAUUCAUG | 0.482 |
| CAAAGGGAAUGCUUCCAGUUUUUGCCCAUUCAGUAUGAUAUUGGCUGUGGGUUUGUCAUAGAUAGCUCUUAUUAUUUUGAAAUACACCCCAUCAAUCCCUAAUUUAUUGA | 1.22 |
| CAAAAUCAGUUGUAUUUACAAAACUCUACUUCAGUGUUUGUUUUAGUUUUUUUUUUUACUGAAACUUGUUUUUGUGAAUACUCUGUGCUUAGAAUUAAAUAUCACUUUCU | 0.849 |
| AAACUGAUCUGCUCCCGGGUGCUUUCUUACCACCAUCUCUGGUGACUUAGCCUCAAAUUGGUGUUUUUCUUUCCCAAGAAUUCAUCUUAAGGGUUAGCUUUGAGUAUGUU | 0.395 |
| UAUGUAGCCAGAUUACUUAAAUCUCAGAAUUACUAAGCAUGUGGCAUAAAUUUGGAGAAAAUAAUAUGACUAGAAAAAUUAGUGUUAUAUUGGGUGUGAGAAAAGACUGU | 12.9 |
| UCACAUGCAACAACGGAAGGAGAUUCAAGAGUCUGCCAUCCCUUAGCAGCCCCUAAGUGGGCCUCUAGAGCUGAAGACACACCCCUGGUGCCACCAGCCUGUGUGGCCCC | 0.77 |

Series 4
Target: Histone acetyltransferase KAT6A, both winged helices, GST fusion (KAT6A, Homo sapiens, UniProt Q92794, residues 1-181)
Technique: protein binding microarray
Molecule type: double-stranded DNA, one strand shown
Medium: in vitro
Concentration: not given
Notes: 8-mer, flanks averaged, mean of 2 arrays, mostly near background
Reference: not given
Reading: higher = stronger binding
Target sequence (chain): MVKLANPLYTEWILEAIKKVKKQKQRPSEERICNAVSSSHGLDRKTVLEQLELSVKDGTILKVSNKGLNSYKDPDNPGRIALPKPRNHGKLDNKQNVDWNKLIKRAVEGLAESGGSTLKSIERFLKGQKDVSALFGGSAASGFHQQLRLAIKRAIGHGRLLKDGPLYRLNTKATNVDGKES
| Oligonucleotide | E-score |
| --- | --- |
| ATTGTACA | 0.00148 |
| AATAATGG | -0.0387 |
| GTAAGCAA | -0.165 |
| AACGGGCT | 0.156 |
| CAATGAGC | -0.00758 |
| AATGTAAT | -0.0481 |
| AACATGTT | 0.00056 |
| GTAGTGAC | 0.106 |
| TAGATACA | -0.0769 |
| AGGCCTAT | -0.177 |
| TGACAGAA | -0.0581 |
| AATCCCAT | -0.0957 |
| GACGTACA | -0.047 |
| GATTTGGA | -0.109 |
| AGCTCTAT | -0.108 |
| AGTTGCAA | -0.0207 |
| AATTGCGT | 0.222 |
| CACCACTC | -0.132 |
| CCAATGTC | -0.0358 |
| AAAAGAGC | -0.0428 |
| AGAAATTC | 0.0342 |
| GCGGCCTA | 0.208 |
| AGAATTCT | 0.143 |
| GAGGCTCC | -0.0379 |
| CCTTCATA | -0.0551 |

Series 5
Target: Centromere-binding protein 1, full length, His-tagged (CBF1, Saccharomyces cerevisiae, UniProt P17106, residues 1-351)
UniProt P17106, sequence (whole entry, looked up): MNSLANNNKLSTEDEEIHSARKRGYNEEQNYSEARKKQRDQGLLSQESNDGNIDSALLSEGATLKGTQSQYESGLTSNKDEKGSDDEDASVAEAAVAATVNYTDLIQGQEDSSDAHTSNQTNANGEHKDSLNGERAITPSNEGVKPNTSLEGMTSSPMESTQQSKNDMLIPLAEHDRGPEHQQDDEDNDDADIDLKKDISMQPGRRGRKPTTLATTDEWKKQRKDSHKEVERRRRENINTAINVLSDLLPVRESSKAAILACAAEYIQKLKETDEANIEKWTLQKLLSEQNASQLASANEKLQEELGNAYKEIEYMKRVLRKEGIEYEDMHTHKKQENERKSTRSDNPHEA
Technique: competition protein-binding microarray
Molecule type: double-stranded DNA, one strand shown
Medium: in vitro
Concentration: 2 µM
Notes: whole 60-bp probe, lowest competitor level
Added: Pho4 competitor, 0.05 µM
Reading: higher = stronger binding
All sequences stand within: … GTCTTGATTCGCTTGACGCTGCTG
| Oligonucleotide | fluorescence intensity [a.u.] |
| --- | --- |
| GTCTTGTCTCATTGTCACCGGACTTTCCCCACTTCA | 102 |
| CATACCCAACCTTGCGGGGTGGGTGAAGATATTTGT | 70.4 |
| TAATAACAATCTACCCACGTGGTGAAGCAACACCTA | 1190 |
| AAATTACTAAGTTGTCACAGGACTTACCCCGTATGA | 133 |
| TGCGCAACAACTTGTCTGGTGGGTGTATGTCTAGAA | 59.5 |
| CTTCTGTAAATTTGTTTAGTGGGTGGACGCGCCCCG | 80.9 |
| CTTCTGTAAATTTGTTGGGTGGGTGGACGCGCCCCG | 81.2 |
| CCATATTTTCTTTGGCGTGTGCCAAGATCTTGTTGT | 82.3 |
| ATATCCAACATTTGGCCCGTGATGGCTTAAGCGACT | 178 |
| CATACCCAACCTTTTCACGTGATGTAAGATATTTGT | 3720 |
| GTAAGAACTCAGCTTCCCGTGAGGATGGTTCTAATG | 69.4 |
| TATATACATTGCCATCACGGGACTTAGCGTTAGTTC | 850 |
| ATTGATGATGGTTATCATGCTTGATAATAGACTTAA | 86.8 |
| AAAGCGGTAATTTGAGGGGTGGGTGCAGATATCTAT | 72.8 |
| CGCCCGACGTCATTCCTCGTGATGGCTTCTGTTGTT | 172 |
| CCAGTGACAAGTCGGCACGTGAAGAAGCTAGAAGAC | 1080 |
| TTACGGGACTTTTGTCATGCGGGCTGTCAAGCAGGC | 83.6 |
| CGGGGTTAAGTTTGTGTCGTGGGTGGCTTGCAGCAG | 83.2 |
| CTGTAGACTCAGAGTCAGCTGATTGTTGGGTATGTG | 370 |
| AGCCTCGGAAGTCCAAGCGTGTCCTCCTCGAAAAAG | 80.1 |
| TCCAAGACGGTTAATCTCGTGATGGATTTTGACTAC | 502 |
| CGCTCTGTTCCTTCTCCCGTGCTGTCGCAAGCGAAC | 81.7 |
| CTAACGAAGGTTTTACACGTGTTTTACAAGCCAAGT | 1440 |
| CTAACGAAGGTTTGTCACGCAACTTACAAGCCAAGT | 115 |
| CGCAAATGGGCATTTGATGTGACGAAAAATTTGGAC | 85.4 |

Some of these lines once more (series 1):
| Oligonucleotide | E-score |
| --- | --- |
| ACCTAAGT | 0.076 |
| ATTCAAAT | 0.334 |
| CGGGTTAG | -0.352 |
| CGAAAGTA | 0.0773 |
| AGGAGCCT | -0.272 |
| ATTGAGCA | 0.0784 |
| GAACCAGC | -0.099 |
| CAAGTTTC | 0.122 |
| CCAGAGGG | -0.343 |
| GCTATAAC | 0.147 |
| ATATCCGG | -0.0374 |
| CAGCAAGG | -0.183 |
| GGTGGGGA | -0.187 |
| CGTATGAG | 0.0642 |
| ACGAGGCT | 0.00357 |
| AAACCCTT | 0.068 |
| ATCTCCGA | -0.0365 |
